Measured values pooled from the literature.
A part holds a random share of what one study measured.

Set 1
Target: Hepatocyte nuclear factor 3-beta, forkhead domain (FOXA2, Homo sapiens, UniProt Q9Y261, residues 142-269)
Method: protein-binding microarray
Molecule type: double-stranded DNA, one strand shown
Sample: in vitro
Concentration: not given
Setting: k-mer, scored over probes, only values ≥0.25
Direction: higher = stronger binding
Target sequence (chain): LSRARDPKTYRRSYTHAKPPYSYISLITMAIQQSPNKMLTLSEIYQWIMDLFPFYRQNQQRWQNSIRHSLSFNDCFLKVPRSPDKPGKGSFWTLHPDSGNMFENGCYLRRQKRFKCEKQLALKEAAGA
`CAACAATA` gave an E-score of 0.318.
The E-score of `ACAGACAT` is reported as 0.258.
`ATAATGTG` gave an E-score of 0.315.
With `TATTTAGA` the E-score was 0.28.
For `AGTCAAAT`, the E-score was 0.276.
`TGTAATAA` has an E-score of 0.31.
For `CAGTATGA`, the E-score was 0.256.
With `ACAATAAT` the E-score was 0.307.

Set 2
Target: TAR DNA-binding protein 43, full length, His tag (TARDBP, Homo sapiens, UniProt Q13148, residues 1-414)
Method: RNA Bind-n-Seq
Molecule type: RNA
Sample: in vitro
Concentration: 20 nM
Setting: 6-mer, flanks averaged, single round
Together with: 150 mM KCl
Baseline: input library
Direction: higher = stronger binding
For `CGCGUA`, “6-mer enrichment (R)” read 0.807.
For `UCAAAG`, “6-mer enrichment (R)” read 0.706.
`AUCGCG` — result for “6-mer enrichment (R)”: 0.878.
Under “6-mer enrichment (R)”, `GAUGAU` is recorded as 0.84.
`GAAGCG`: “6-mer enrichment (R)” 1.79.
Under “6-mer enrichment (R)”, `CAGGGG` is recorded as 4.3.
`GAGGGG` — result for “6-mer enrichment (R)”: 8.71.
Under “6-mer enrichment (R)”, `GCAUUG` is recorded as 0.85.

Set 3
Target: PABPC1L2, full length, GST fusion (mouse, UniProt A0ABA7IW68)
Method: RNAcompete
Molecule type: RNA
Sample: in vitro
Concentration: 20 nM
Setting: 7-mer, probes averaged, single round
Baseline: mean of 7-mers
Direction: higher = stronger binding
Target sequence (chain): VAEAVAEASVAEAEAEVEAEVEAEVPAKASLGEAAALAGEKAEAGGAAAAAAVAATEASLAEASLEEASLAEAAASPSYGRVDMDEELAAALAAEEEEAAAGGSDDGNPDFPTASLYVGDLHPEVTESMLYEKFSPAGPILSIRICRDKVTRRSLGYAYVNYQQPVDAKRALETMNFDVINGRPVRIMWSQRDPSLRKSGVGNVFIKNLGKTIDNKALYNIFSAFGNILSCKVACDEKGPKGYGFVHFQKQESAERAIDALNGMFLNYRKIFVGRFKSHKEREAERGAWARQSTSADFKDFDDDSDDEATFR
`AUGCUGG` gave a 7-mer Z-score of 0.0605.
The 7-mer Z-score of `GCUCCUU` is reported as -0.318.
For `GCAGGCC`, the 7-mer Z-score was -0.0772.
The 7-mer Z-score of `UAAGGGU` is reported as 0.0261.
The 7-mer Z-score of `ACGUCUG` is reported as -0.324.
The 7-mer Z-score of `CCCCAAA` is reported as 0.198.
For `GCGGCCA`, the 7-mer Z-score was 0.0261.
The 7-mer Z-score of `AAAAGCC` is reported as 3.71.

Mixed results
The viability of `C[C@@H]1O[C@@H](OC[C@H]2O[C@@H](Oc3c(-c4ccc(O)c(O)c4)oc4cc(O)cc(O)c4c3=O)[C@H](O)[C@@H](O)[C@@H]2O)[C@H](O)[C@H](O)[C@H]1O` is reported as 98.1% (A-375; 100 µM, 18 h).

Repeated from above (set 3):
For `GCGGCCA`, the 7-mer Z-score was 0.0261.
The 7-mer Z-score of `AAAAGCC` is reported as 3.71.
